Published values collected from several papers.
Each numbered part is a random draw from the data of one study; scales do not carry over between parts. Substitutions count along the parent as printed.

Study 1
Target: ABI1, truncated, D143A, DHFR fusion (Arabidopsis thaliana)
Technique: DHFR PCA, deep sequencing
Medium: yeast
Setting: methotrexate growth selection, single substitutions
With: (+)-ABA 58 µM
Relative to: wild-type fitted maximum
Reading: higher = stronger binding
Parent: PYL1, truncated, DHFR fusion (Arabidopsis thaliana); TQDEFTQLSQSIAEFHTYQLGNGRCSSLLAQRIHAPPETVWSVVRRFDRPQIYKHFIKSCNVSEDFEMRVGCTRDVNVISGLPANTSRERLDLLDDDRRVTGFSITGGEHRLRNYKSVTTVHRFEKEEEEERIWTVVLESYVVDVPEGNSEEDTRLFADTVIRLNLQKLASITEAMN
| Change | relative binding score |
| --- | --- |
| G148D | 74.3% |
| C60D | 8.03% |
| E38H | 65.4% |
| E89H | 11% |
| L164A | 89% |
| L93E | 77% |
| R155Y | 23.4% |
| R98P | 14.5% |
| T135M | -5.1% |
| L8K | 49.3% |
| T1C | 89% |
| N177Q | 84.7% |
| E38Q | 75.1% |
| Y53K | 4.45% |
| V62C | 73.7% |

Study 2
Target: Interferon regulatory factor 7, full length, phosphomimetic (IRF7, Homo sapiens, UniProt Q92985, residues 1-503, S471D/S472D/S475D/S476D/S477D/S483D/S484D/S487D)
Sequence of UniProt Q92985 (whole entry, unmodified, looked up): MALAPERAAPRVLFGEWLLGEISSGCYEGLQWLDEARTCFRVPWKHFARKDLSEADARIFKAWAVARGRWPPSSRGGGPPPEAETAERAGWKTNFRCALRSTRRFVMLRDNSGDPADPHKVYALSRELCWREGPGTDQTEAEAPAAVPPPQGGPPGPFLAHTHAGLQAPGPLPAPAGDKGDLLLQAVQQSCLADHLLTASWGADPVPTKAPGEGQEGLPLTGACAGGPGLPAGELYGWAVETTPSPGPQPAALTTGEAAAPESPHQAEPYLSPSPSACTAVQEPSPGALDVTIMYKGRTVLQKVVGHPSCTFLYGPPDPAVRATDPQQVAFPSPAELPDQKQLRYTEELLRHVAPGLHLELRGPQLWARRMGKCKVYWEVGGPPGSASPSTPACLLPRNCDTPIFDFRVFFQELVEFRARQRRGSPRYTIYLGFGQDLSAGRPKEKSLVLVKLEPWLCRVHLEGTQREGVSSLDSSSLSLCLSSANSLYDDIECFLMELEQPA
Technique: protein-binding microarray
Molecule type: double-stranded DNA, one strand shown
Medium: in vitro
Concentration: 2200 nM top
Setting: 60-bp whole probe
With: salmon DNA 0.4 mg/ml
Relative to: random background probes
Reading: higher = stronger binding
Shared flanks, not repeated: GCCTAGCAC … GTCTTGATTCGCTTGACGCTGCTG
| Strand | fitted relative affinity [z-score] |
| --- | --- |
| TGAGATCTCAGTTTCGATTAGTGCTAG | 5.63 |
| ATGCATGTGCTGTCTCAGAGTGTGCTA | 1.02 |
| GACGGTAGCGGTATCGGGACGTGCTAG | -0.384 |
| GTCGATATCAGTATCGAGACGTGCTAG | 0.533 |
| TCATAAAATGGACACTGTACTGTGCTA | -0.402 |
| GACGGTATCGGGACTGGGGATGTGCTA | -0.402 |
| TTAGGTTTCGACTCTCGGTTAGTGCTA | 6.42 |
| TTAGGTTTCGAATATCGGTTAGTGCTA | 2.03 |
| TTAGAGTCCAGTTTCGATTAGTGCTAG | 5.78 |
| GACGGACGGGGTCTCGGGACGTGCTAG | -0.773 |
| TTAGGTATCGGGAATGGGTTAGTGCTA | -0.238 |
| CATCTTCTGGATTTTTTAGCGTGCTAG | 0.881 |
| GACGATTTCCTACTGCTGACGTGCTAG | 1.7 |
| TCTCTTTTATTTTTTTTATTGTGCTAG | 1.63 |
| GACGGTATTGGGTTTCGGGACGTGCTA | 1.42 |
| GAAGTTCTTTTTTTCAAGAAGTGCTAG | -0.345 |
| TTAGATATCAGAATGGATTAGTGCTAG | -0.544 |
| GCCGAACTGAGTCTCGAGACGTGCTAG | 0.117 |
| GACTGTTTCGGGACTGGGGACGTGCTA | 2.47 |

Study 3
Target: Prothrombin, mature alpha-thrombin (F2, Homo sapiens, UniProt P00734)
Technique: aptamer microarray, sandwich
Molecule type: DNA with 2'F-ANA
Medium: in vitro
Concentration: 200 nM
Setting: whole 15-mer aptamer, many near background
With: Cy3 exosite-II aptamer, 400 nM
Reading: higher = stronger binding
Strand: GGTTGGTGTGGTTGG
| Modification | mean fluorescence intensity |
| --- | --- |
| 2'F-ANA at 1 6 10 12 13 14 | 50.3 a.u. |
| 2'F-ANA at 4 5 6 7 8 10 11 12 13 15 | 96.3 a.u. |
| 2'F-ANA at 3 4 5 6 7 11 12 14 | 51 a.u. |
| 2'F-ANA at 6 9 11 15 | 375 a.u. |
| 2'F-ANA at 1 5 8 10 11 12 13 14 | 49.9 a.u. |
| 2'F-ANA at 1 2 3 4 5 6 7 8 9 11 12 13 14 | 79.4 a.u. |
| 2'F-ANA at 1 2 3 6 7 | 176 a.u. |
| 2'F-ANA at 1 4 6 7 8 9 10 12 14 | 49.4 a.u. |
| 2'F-ANA at 1 2 3 5 6 8 9 10 11 12 13 15 | 61.6 a.u. |
| 2'F-ANA at 2 8 10 13 | 119 a.u. |
| 2'F-ANA at 1 6 7 12 14 | 103 a.u. |
| 2'F-ANA at 1 2 3 4 5 6 7 9 10 11 12 13 14 | 49.7 a.u. |
| 2'F-ANA at 1 2 4 5 6 8 9 10 11 15 | 48.2 a.u. |
| 2'F-ANA at 1 2 3 4 5 6 7 8 9 10 11 13 15 | 53.8 a.u. |
| 2'F-ANA at 3 4 5 7 8 10 11 | 55.5 a.u. |
| 2'F-ANA at 2 5 6 7 9 11 12 | 207 a.u. |
| 2'F-ANA at 2 3 4 5 6 8 9 10 11 | 58 a.u. |

Study 4
Target: Fragile X messenger ribonucleoprotein 1, C-terminal low-complexity region (Fmr1, Mus musculus, UniProt P35922)
Technique: RNA Bind-n-Seq
Molecule type: RNA
Medium: in vitro
Concentration: 200 nM
Setting: whole 134-nt RNA, ends assumed
With: 150 mM LiCl
Relative to: input library
Reading: higher = stronger binding
All molecules: 7-deaza-guanosine replaces G
Shared flanks, not repeated: GGGAGUUCUACAGUCCGACGAUC … UGGAAUUCUCGGGUGUCAAGG
| Strand | log2 enrichment |
| --- | --- |
| UGGCCCUGGUGGCAUGCGGGGAGGAAGAGGGGGCCUCAUGGAUCGUGGUGGUCCCGGUGGAAUGUUCAGAGGUGGCCGUGGUGGAGACAG | 0.0706 |
| CUCAAGUCCUGUGCUACACAUCGUAUGUACCGAAUCGGGGUGGGGUGGGGUGGAAAGUAUUAUGUUACGCCGUUCGGAUCUGCACUUCCA | -1.09 |
| GUCCUGUGCUACACAUCGUAUGUACCGAAUCGGAAAAAAAGGUUUUUUUGGAAAAAGGAAAGUAUUAUGUUACGCCGUUCGGAUCUGCAC | -2.84 |
| AGUCCUGUGCUACACAUCGUAUGUACCGAAUCAAAUUUAAAUUUUUUUAAAUUUAAAAAAGUAUUAUGUUACGCCGUUCGGAUCUGCACU | -3.24 |
| UGGGACGUGGAUUUUGUUUAUUUUUUUAGCUCAUUUCCAGGGGUGGGAAUUUUUUUUUAAUAUGUGUCAUGAAUAAAGUUGUUUUUGAAA | 1.34 |
| AGUCCUGUGCUACACAUCGUAUGUACCGAAUCGGGAGGGUUUUUGGGUUUUUUUGGGAAAGUAUUAUGUUACGCCGUUCGGAUCUGCACU | -1.64 |

Repeated from above (study 2):
| Strand | fitted relative affinity [z-score] |
| --- | --- |
| GACGGTATCGGGACTGGGGATGTGCTA | -0.402 |
| TTAGGTTTCGACTCTCGGTTAGTGCTA | 6.42 |
| TTAGGTTTCGAATATCGGTTAGTGCTA | 2.03 |
| TTAGAGTCCAGTTTCGATTAGTGCTAG | 5.78 |
| GACGGACGGGGTCTCGGGACGTGCTAG | -0.773 |
| TTAGGTATCGGGAATGGGTTAGTGCTA | -0.238 |
| CATCTTCTGGATTTTTTAGCGTGCTAG | 0.881 |
| GACGATTTCCTACTGCTGACGTGCTAG | 1.7 |
| TCTCTTTTATTTTTTTTATTGTGCTAG | 1.63 |
